Experimental data pooled from the literature.
Each numbered part is a random draw from the data of one study; scales do not carry over between parts. Substitutions count along the parent as printed.

Set 1
Target: Interferon regulatory factor 7, full length, phosphomimetic (IRF7, Homo sapiens, UniProt Q92985, residues 1-503, S471D/S472D/S475D/S476D/S477D/S483D/S484D/S487D)
Method: protein-binding microarray
Form: double-stranded DNA, one strand shown
Medium: in vitro
Concentration: 2200 nM top
Notes: 60-bp whole probe
With: salmon DNA 0.4 mg/ml
Reference: random background probes
Direction: higher = stronger binding
All sequences stand within: GCCTAGCAC … GTCTTGATTCGCTTGACGCTGCTG
Target sequence (chain): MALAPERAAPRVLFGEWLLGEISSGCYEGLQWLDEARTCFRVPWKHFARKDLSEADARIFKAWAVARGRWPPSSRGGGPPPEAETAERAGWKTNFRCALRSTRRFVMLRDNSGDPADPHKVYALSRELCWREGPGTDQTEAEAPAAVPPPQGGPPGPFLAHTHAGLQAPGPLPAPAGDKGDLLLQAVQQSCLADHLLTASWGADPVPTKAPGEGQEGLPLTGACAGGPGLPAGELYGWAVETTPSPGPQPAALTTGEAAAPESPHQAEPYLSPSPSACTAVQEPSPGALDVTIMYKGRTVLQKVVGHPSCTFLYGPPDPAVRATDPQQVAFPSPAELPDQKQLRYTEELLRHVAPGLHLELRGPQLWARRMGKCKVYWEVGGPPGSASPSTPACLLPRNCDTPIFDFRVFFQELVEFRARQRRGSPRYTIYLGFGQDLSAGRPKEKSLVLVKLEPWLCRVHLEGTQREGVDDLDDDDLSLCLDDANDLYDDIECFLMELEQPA
For `TTAGATTTTAGTATCGATTAGTGCTAG`, “fitted relative affinity” read 0.246 z-score.
`CACGGTTTCCTTCTCCTGACGTGCTAG`: “fitted relative affinity” 3.15 z-score.
For `GCCGAACTGAGACTGGAGACGTGCTAG`, “fitted relative affinity” read -0.146 z-score.
`GACGGTATCGGGTTCCGGGACGTGCTA` — result for “fitted relative affinity”: 0.543 z-score.
`GACGGCCTGGGTCTCGGGACGTGCTAG`: “fitted relative affinity” -1.23 z-score.
`CACATTCTCTGCTTGGGTCTGTGCTAG`: “fitted relative affinity” 1.99 z-score.
Under “fitted relative affinity”, `TAAGGTTTCGACTTTCGGTTAGTGCTA` is recorded as 10.7 z-score.
`GACGTTTCCGGTTTCGGGACGTGCTAG`: “fitted relative affinity” 6.72 z-score.
`TTAGGTTTCCCTTCCCTTTAGTGCTAG`: “fitted relative affinity” 3.95 z-score.
Under “fitted relative affinity”, `GGGATTTTTAGTTAGAAAAAGTGCTAG` is recorded as -0.723 z-score.
`GAAGGTCTCGGTATCGGGACGTGCTAG` — result for “fitted relative affinity”: 0.339 z-score.
Under “fitted relative affinity”, `TCAAATGACCTTCTCAGACTGTGCTAG` is recorded as -0.0786 z-score.
Under “fitted relative affinity”, `TCAACACTCTTCTTTTGCACTGTGCTA` is recorded as 1.29 z-score.
For `TCACTTTTCATTTTCTTACTGTGCTAG`, “fitted relative affinity” read 5.81 z-score.

Set 2
Target: CCNE1, cyclin fold, Cln2 fusion (human)
Method: yeast growth competition, sequencing
Medium: yeast
Notes: weak parent motif
Reference: not given
Direction: higher = stronger binding
Starting sequence: MASTL docking peptide (human); PMIAKNLMCELDE
`PMILKNLMCELDE [A4L]`: “normalised enrichment score” -0.0276.
For `PMIAKNLMCEIDE [L11I]`, “normalised enrichment score” read 0.0845.
Under “normalised enrichment score”, `PMIAKNLMNELDE [C9N]` is recorded as 0.112.
Under “normalised enrichment score”, `PMAAKNLMCELDE [I3A]` is recorded as -0.182.
`PMITKNLMCELDE [A4T]`: “normalised enrichment score” 0.0258.
For `PMIAPNLMCELDE [K5P]`, “normalised enrichment score” read 0.108.
`PMIAKNRMCELDE [L7R]`: “normalised enrichment score” 0.299.
Under “normalised enrichment score”, `PMIAKNLQCELDE [M8Q]` is recorded as -0.141.
For `PMIAKNLECELDE [M8E]`, “normalised enrichment score” read 0.124.
`PMHAKNLMCELDE [I3H]`: “normalised enrichment score” -0.00917.
`PMIAKNLMCELAE [D12A]`: “normalised enrichment score” 0.138.
For `PMIAKNPMCELDE [L7P]`, “normalised enrichment score” read -0.201.
Under “normalised enrichment score”, `PMIAKNLMFELDE [C9F]` is recorded as 0.377.

Set 3
Target: UBE2G2 UBC core domain (UniProt P60604)
Chain of UniProt P60604 (whole entry, looked up): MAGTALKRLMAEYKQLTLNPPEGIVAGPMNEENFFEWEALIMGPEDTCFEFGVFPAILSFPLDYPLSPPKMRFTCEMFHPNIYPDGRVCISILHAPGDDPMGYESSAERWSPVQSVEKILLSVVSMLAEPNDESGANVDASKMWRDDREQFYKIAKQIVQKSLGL
Method: yeast two-hybrid
Medium: yeast
Notes: mostly zero background
Reference: not given
Direction: higher = stronger interaction
B1: TRIM28 RING domain (UniProt Q13263); chain GAEALELLEHCGVCRERLRPEREPRLLPCLHSACSACLGPAAPAAANSSGDGGAAGDGTVVDCPVCKQQCFSKDIVE
B2: PJA2 RING domain (UniProt O43164); chain DHTAIGQEQCCPICCSEYIKDDIATELPCHHFFHKPCVSIWLQKSGTCPVCRRHFPPAVIEA
B3: SHPRH RING domain (UniProt Q149N8); chain KTSGGVNPEPCPICARQLGKQWAVLTCGHCFCNECISIIIEQYSVGSHRSSIKCAICRQTTSHKEISY
B4: RNF10 RING domain (UniProt Q8N5U6); chain VRICSHEVPSCPICLYPPTAAKITRCGHIFCWACILHYLSLSEKTWSKCPICYSSVHKKDLKS
B5: MARCHF2 RING domain (UniProt Q9P0N8); chain RLLSTVIRALDTPSDGPFCRICHEGANGECLLSPCGCTGTLGAVHKSCLEKWLSSSNTSYCELCHTEFAVEKRPRPLTEWL
B6: TRIM47 RING domain (UniProt Q96LD4); chain MDGSGPFSCPICLEPLREPVTLPCGHNFCLACLGALWPHRGASGAGGPGGAARCPLCQEPFPDGLQLR
B7: RNF17 RING domain (UniProt Q9BXT8); chain SQPWGAAEIQCTRCGRRVSRSSGHHCELQCGHAFCELCLLMTEECTTIICPDCEVATAVNTRQR
B8: RMND5B RING domain (UniProt Q96G75); chain MKCWYHSVFACPILRQQTSDSNPPIKLICGHVISRDALNKLINGGKLKCPYCPMEQNPADGK
For `B1 (TRIM28 RING domain)`, “lacZ reporter activity” read 0.
`GSEEEEIPFRCFICRQAFQNPVVTKCRHYFCESCALEHFRATPRCYICDQPTGGIFNPA (RNF113B RING domain (UniProt Q8IZP6))`: “lacZ reporter activity” 0.
`PLRRLQEEKLCKICMDRHIAVVFIPCGHLVTCKQCAEAVDRCPMCSAVIDFKQRVF (BIRC8 RING domain (UniProt Q96P09))`: “lacZ reporter activity” 15700.
For `B2 (PJA2 RING domain)`, “lacZ reporter activity” read 2140.
For `B3 (SHPRH RING domain)`, “lacZ reporter activity” read 0.
Under “lacZ reporter activity”, `B4 (RNF10 RING domain)` is recorded as 0.
Under “lacZ reporter activity”, `B5 (MARCHF2 RING domain)` is recorded as 0.
Under “lacZ reporter activity”, `B6 (TRIM47 RING domain)` is recorded as 17800.
Under “lacZ reporter activity”, `B7 (RNF17 RING domain)` is recorded as 0.
For `B8 (RMND5B RING domain)`, “lacZ reporter activity” read 0.

Set 4
Target: Centromere-binding protein 1, full length, N-terminal tag (CBF1, Saccharomyces cerevisiae, UniProt P17106, residues 1-351)
Chain of UniProt P17106 (whole entry, looked up): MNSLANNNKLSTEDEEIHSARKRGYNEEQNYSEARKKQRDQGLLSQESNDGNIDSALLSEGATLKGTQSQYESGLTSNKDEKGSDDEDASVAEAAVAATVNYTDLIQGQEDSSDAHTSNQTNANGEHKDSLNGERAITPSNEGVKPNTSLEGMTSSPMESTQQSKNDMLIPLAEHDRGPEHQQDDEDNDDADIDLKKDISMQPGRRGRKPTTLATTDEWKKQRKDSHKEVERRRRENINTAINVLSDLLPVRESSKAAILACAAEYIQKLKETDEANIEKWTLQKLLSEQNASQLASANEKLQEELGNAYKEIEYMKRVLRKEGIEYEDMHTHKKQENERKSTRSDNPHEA
Method: protein-binding microarray
Form: double-stranded DNA, one strand shown
Medium: in vitro
Concentration: 0.8 µM
Notes: whole 60-bp probe, no competitor
Direction: higher = stronger binding
All sequences stand within: … GTCTTGATTCGCTTGACGCTGCTG
With `CTATTTGAGCCAAGCCACGCGACGCTCCATACTTTC` the fluorescence intensity was 524 a.u.
The fluorescence intensity of `GAACGGGGTCCGGGTAACGTGCTTGCGCGCGGATAG` is reported as 827 a.u.
With `CTACCTTTCCTTAATCATGATCTCTTTAGTGCCTTC` the fluorescence intensity was 583 a.u.
With `CTAATTAATTGCAATATCATGATGTTATAGAGTTTC` the fluorescence intensity was 554 a.u.
`GAACCAGCTAAGTATATCGTGAAAACCAAGAAGTAG` gave a fluorescence intensity of 531 a.u.
With `GAATATACTGTGGGAAAAATCACGTGCGAGAAATAG` the fluorescence intensity was 14000 a.u.
With `GAAAACTGCTGTGGTGTCATGATAGACGAAATGTAG` the fluorescence intensity was 616 a.u.
The fluorescence intensity of `GAACTTTTTCCTTAGCGTGCGTTTATGAAAAAATAG` is reported as 598 a.u.
The fluorescence intensity of `GAACAGTATCTACTGCACGTTCTTCCGTAAGTATAG` is reported as 777 a.u.
`GAACTGAAAGATTGATTGGTGATGCTGCTAAGATAG` has a fluorescence intensity of 582 a.u.
The fluorescence intensity of `CTAGCTGTGTTTCCGGACGTGCTCTTCACTTTCTTC` is reported as 513 a.u.
With `GAAACGAGGAAACACCACCTGCCTCTATCCATATAG` the fluorescence intensity was 541 a.u.
For `GAATTAAATTATGACCCCGTGGTGTTTGGGTTATAG`, the fluorescence intensity was 1190 a.u.
For `GAACGCTTAAACTGTGACCAAATATGGATTACGTAG`, the fluorescence intensity was 567 a.u.
For `CTAATGGGATACGTCAGCATGACAATACATTATTTC`, the fluorescence intensity was 556 a.u.
`CTATGGTATTAGCATCAGGTATACTTTAATTAATTC` has a fluorescence intensity of 501 a.u.

Set 5
Target: Myc proto-oncogene protein, bHLH-zipper, MAX partner unstated (MYC, Homo sapiens, UniProt P01106, residues 368-449)
Chain of UniProt P01106 (368-449, looked up): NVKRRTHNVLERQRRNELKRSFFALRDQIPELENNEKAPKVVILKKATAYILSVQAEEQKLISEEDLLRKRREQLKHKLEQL
Method: protein-binding microarray
Form: double-stranded DNA, one strand shown
Medium: in vitro
Concentration: not given
Notes: k-mer, scored over probes, only values ≥0.25
Direction: higher = stronger binding
`CACCCACA` has an E-score of 0.28.
The E-score of `CCAACCAC` is reported as 0.324.
For `CAACACAC`, the E-score was 0.26.
`CCTGCACG` has an E-score of 0.341.
`ACTCCACG` has an E-score of 0.333.
The E-score of `CGGGGCAC` is reported as 0.29.
`ACACGTGG` gave an E-score of 0.497.
With `ACAGCATG` the E-score was 0.433.
With `CAACGTGG` the E-score was 0.442.
`AGCACGAT` has an E-score of 0.294.
`GCATACAC` gave an E-score of 0.274.
`AAGCACAC` gave an E-score of 0.321.
With `CGTGCACA` the E-score was 0.315.
The E-score of `TGGGACCA` is reported as 0.263.
For `CCCCACGC`, the E-score was 0.414.

Set 6
Target: Sal-like protein 4, full length isoform A (SALL4, Homo sapiens, UniProt Q9UJQ4, residues 1-1053)
Chain of UniProt Q9UJQ4 (whole entry, looked up): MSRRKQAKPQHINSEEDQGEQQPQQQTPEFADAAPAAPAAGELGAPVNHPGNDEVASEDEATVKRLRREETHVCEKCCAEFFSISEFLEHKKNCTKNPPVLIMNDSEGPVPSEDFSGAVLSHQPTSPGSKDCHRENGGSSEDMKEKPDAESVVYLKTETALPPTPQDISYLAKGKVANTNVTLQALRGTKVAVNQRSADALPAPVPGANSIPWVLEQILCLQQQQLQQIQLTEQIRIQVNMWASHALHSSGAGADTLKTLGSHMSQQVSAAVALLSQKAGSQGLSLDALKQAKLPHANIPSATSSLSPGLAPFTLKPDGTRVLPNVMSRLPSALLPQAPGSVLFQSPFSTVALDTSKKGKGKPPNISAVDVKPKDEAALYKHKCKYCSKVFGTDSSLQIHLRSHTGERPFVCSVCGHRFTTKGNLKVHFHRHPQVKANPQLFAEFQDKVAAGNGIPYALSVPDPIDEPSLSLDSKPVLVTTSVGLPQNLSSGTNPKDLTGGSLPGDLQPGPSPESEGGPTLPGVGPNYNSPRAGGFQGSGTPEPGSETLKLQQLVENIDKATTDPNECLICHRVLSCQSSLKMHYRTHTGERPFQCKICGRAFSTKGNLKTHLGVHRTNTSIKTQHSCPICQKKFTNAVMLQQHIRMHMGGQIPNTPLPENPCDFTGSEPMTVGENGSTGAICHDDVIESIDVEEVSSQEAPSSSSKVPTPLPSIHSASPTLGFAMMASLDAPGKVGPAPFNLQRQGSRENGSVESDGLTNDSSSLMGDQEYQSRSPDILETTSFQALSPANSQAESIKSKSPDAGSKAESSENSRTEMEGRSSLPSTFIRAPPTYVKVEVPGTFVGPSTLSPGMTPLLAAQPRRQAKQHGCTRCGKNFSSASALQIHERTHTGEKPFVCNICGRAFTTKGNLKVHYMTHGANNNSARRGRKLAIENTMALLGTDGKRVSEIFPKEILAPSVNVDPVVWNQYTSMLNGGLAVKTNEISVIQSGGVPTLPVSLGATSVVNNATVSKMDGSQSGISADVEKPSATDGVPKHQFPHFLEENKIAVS
Method: universal PBM
Form: double-stranded DNA, one strand shown
Medium: in vitro
Concentration: 600 nM
Notes: 8-mer, flanks averaged, mean of replicates
Direction: higher = stronger binding
`CCGCACCG` has an E-score of -0.284.
`GCACGGTA` has an E-score of -0.0938.
The E-score of `GCCTGGCC` is reported as -0.323.
The E-score of `AATCATAC` is reported as 0.233.
With `CAGGGTTA` the E-score was -0.166.
With `GAGTGATA` the E-score was 0.155.
With `GAACGATA` the E-score was 0.183.
The E-score of `ACAAGAGC` is reported as 0.0707.
With `AAATTTAA` the E-score was 0.251.
With `ATAGCATG` the E-score was 0.0535.
With `GGGCCCTA` the E-score was -0.294.
The E-score of `AGAAACGG` is reported as -0.101.
For `ATGACACA`, the E-score was 0.184.
The E-score of `ACCAGATA` is reported as 0.252.
The E-score of `GTTTTTAA` is reported as 0.237.

Repeated from above (set 3):
Under “lacZ reporter activity”, `B7 (RNF17 RING domain)` is recorded as 0.
Under “lacZ reporter activity”, `B4 (RNF10 RING domain)` is recorded as 0.
`GSEEEEIPFRCFICRQAFQNPVVTKCRHYFCESCALEHFRATPRCYICDQPTGGIFNPA (RNF113B RING domain (UniProt Q8IZP6))`: “lacZ reporter activity” 0.
Under “lacZ reporter activity”, `B6 (TRIM47 RING domain)` is recorded as 17800.
For `B1 (TRIM28 RING domain)`, “lacZ reporter activity” read 0.
For `B8 (RMND5B RING domain)`, “lacZ reporter activity” read 0.
`PLRRLQEEKLCKICMDRHIAVVFIPCGHLVTCKQCAEAVDRCPMCSAVIDFKQRVF (BIRC8 RING domain (UniProt Q96P09))`: “lacZ reporter activity” 15700.
For `B3 (SHPRH RING domain)`, “lacZ reporter activity” read 0.
For `B2 (PJA2 RING domain)`, “lacZ reporter activity” read 2140.
Under “lacZ reporter activity”, `B5 (MARCHF2 RING domain)` is recorded as 0.
